Results collected from several papers.
Parts stem from different laboratories: compare values within a part only. Positions count from the first letter of the parent shown.

Study 1
Target: NFE2L1, bZIP domain (human)
Technique: DHFR protein complementation
Sample: yeast
Setting: single substitutions, most at no-binding floor
Relative to: wild-type JUN-FOS pair
Direction: higher = stronger binding
Starting sequence: JUN, bZIP domain (human); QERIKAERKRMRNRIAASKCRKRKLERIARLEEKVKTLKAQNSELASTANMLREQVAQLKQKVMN; partner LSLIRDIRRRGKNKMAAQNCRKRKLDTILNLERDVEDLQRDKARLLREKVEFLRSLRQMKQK
| Variant | binding fitness |
| --- | --- |
| S47M | -1.51 natural log |
| K34R | -1.38 natural log |
| A49S | -1.59 natural log |
| A46V | -1.49 natural log |

Study 2
Target: CCNA1, cyclin fold, Cln2 fusion (human)
Technique: yeast growth competition, sequencing
Sample: yeast
Setting: weak parent motif
Relative to: not given
Direction: higher = stronger binding
Starting sequence: CDC6 docking peptide (human); TLKGRRLVFDNQL; partner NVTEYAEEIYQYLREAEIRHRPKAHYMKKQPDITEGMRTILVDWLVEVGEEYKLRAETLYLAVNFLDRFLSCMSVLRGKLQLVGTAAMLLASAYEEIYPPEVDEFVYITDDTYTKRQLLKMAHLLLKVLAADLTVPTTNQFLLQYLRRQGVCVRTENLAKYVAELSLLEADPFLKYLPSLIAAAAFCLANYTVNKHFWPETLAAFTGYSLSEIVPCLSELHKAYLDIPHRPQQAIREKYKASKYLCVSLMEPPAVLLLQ
| Variant | normalised enrichment score |
| --- | --- |
| Q12C | 0.142 |
| N11Y | 0.382 |
| L13P | 0.338 |
| K3I | 0.511 |
| V8I | 0.391 |

Study 3
Target: ABI1, truncated, D143A, DHFR fusion (Arabidopsis thaliana)
Technique: DHFR PCA, deep sequencing
Sample: yeast
Setting: methotrexate growth selection, single substitutions
Together with: (+)-ABA 200 µM
Relative to: wild-type fitted maximum
Direction: higher = stronger binding
Starting sequence: PYL1, truncated, DHFR fusion (Arabidopsis thaliana); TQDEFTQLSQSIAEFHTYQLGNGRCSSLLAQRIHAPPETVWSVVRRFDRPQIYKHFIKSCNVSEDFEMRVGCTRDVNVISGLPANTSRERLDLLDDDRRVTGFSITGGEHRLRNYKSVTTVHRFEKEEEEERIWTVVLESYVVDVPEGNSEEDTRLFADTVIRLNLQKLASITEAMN; partner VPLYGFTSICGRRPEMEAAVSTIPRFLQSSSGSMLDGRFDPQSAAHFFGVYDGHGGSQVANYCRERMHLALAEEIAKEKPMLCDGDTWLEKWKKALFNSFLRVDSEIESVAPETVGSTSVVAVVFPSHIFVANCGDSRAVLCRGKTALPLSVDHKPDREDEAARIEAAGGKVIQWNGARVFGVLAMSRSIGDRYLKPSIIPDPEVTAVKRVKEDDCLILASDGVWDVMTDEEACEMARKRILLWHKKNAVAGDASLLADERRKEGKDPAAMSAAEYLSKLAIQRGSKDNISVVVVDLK
| Variant | relative binding score [%] |
| --- | --- |
| C60Y | 25.1 |
| T17E | 88.6 |
| P146G | 71.7 |
| G71R | 41.1 |

Single results of other studies
| Substance | target | assay | system | conditions | scale | quantity | value |
| --- | --- | --- | --- | --- | --- | --- | --- |
| PhoQ, residues 284 288 289 292 302 303 ALVSVA | PhoP, residues 12 14 15 18 19 FWNTL (Escherichia coli, UniProt P23836) | Sort-seq, measured: YFP reporter | E. coli | PhoQ-PhoP variant library, together with: 10 µM Mg2+ | relative to: high Mg2+ state, higher = stronger signaling | fold induction | 1.93 |
